Measured values pooled from the literature.
Each line is one published result; not all experiments were run side by side. Several values in a cell are separate wells, animals, samples, runs or records. ± gives the spread as reported.

For `CC(C)C[C@H](NC(=O)[C@H](CCCCN)NC(=O)OCC1c2ccccc2-c2ccccc21)C(=O)N[C@H](C(=O)N[C@@H](Cc1ccccc1)C(=O)N[C@@H](Cc1ccccc1)C(=O)N[C@@H](CCCCN)C(=O)NCC(=O)N[C@@H](Cc1ccccc1)C(=O)N[C@@H](C)C(=O)N[C@@H](Cc1c[nH]c2ccccc12)C(=O)N[C@@H](CC(N)=O)C(=O)N[C@H](C(=O)N[C@H]1CSSC[C@@H](C(=O)N[C@@H](Cc2c[nH]cn2)C(=O)N[C@@H](CCCNC(=N)N)C(=O)N[C@@H](CCCNC(=N)N)C(=O)N[C@@H](C)C(=O)N[C@@H](CC(N)=O)C(N)=O)NC(=O)[C@H](C(C)C)NC(=O)[C@H](CCCNC(=N)N)NC(=O)[C@H](C(C)C)NC(=O)CNC(=O)[C@H](CC(N)=O)NC(=O)[C@H](CCCNC(=N)N)NC(=O)[C@H](Cc2ccc(O)cc2)NC(=O)[C@H](C(C)C)NC1=O)C(C)C)C(C)C`, “secondary structure content” read 6.03% (circular dichroism, measured: α-Helix; PBS; 80 µM, pH 7.4, with: LTA 1 µM).
With `C=CC(=O)Nc1cc(Nc2ncc(C(=O)OC(C)C)c(-c3cn(C)c4ccccc34)n2)c(OC)cc1N(C)CCN(C)C` the fatal pneumonitis was 0.9% (NSCLC patients, primary efficacy population; 160 mg once daily, one event).
The TRAE incidence of `CO[C@H]1C[C@@H]2CC[C@@H](C)[C@@](O)(O2)C(=O)C(=O)N2CCCC[C@H]2C(=O)O[C@H]([C@H](C)C[C@@H]2CC[C@@H](OC(=O)NCCOCCOCCOCCOCCOCCOCCOCCOCCC(=O)N3CCc4cc(Cn5nc(-c6ccc7oc(N)nc7c6)c6c(N)ncnc65)ccc4C3)[C@H](OC)C2)C[C@@H](O)[C@H](C)/C=C(\C)[C@@H](O)[C@@H](OC)C(=O)[C@H](C)C[C@H](C)/C=C/C=C/C=C/1C` is reported as 0% (phase 1 dose escalation, measured: headache; advanced solid tumour patients; intravenous, 8 mg weekly, grade ≥3).
Under “change in Body score”, `O=C(Nc1ccccc1)C1CCN(C(=O)Oc2cccnc2)CC1` is recorded as 2.1 (psychotropic effects VAS; healthy women; 100 mg; reference: pre-dose baseline, direction not given).
With `COc1ccc2nc3cc(Cl)ccc3c(Nc3cc(CN4CCCC4)c(O)c(CN4CCCC4)c3)c2n1` the lymphocyte count was 4.49 10⁹/L (mouse, blood; intraperitoneal, 57 mg/kg).
For `C=CC[N+]1([C@H]2C[C@H]3[C@@H]4CC[C@H]5C[C@H](O)[C@@H](N6CCOCC6)C[C@]5(C)[C@H]4CC[C@]3(C)[C@H]2OC(C)=O)CCCC1`, the terminal half-life was 0.297 h (Sprague Dawley rat, plasma; intravenous, dose not given, with: sugammadex 5 mg/kg IV).
Under “hyponatremia incidence, grade ≥3”, `C=CC(=O)N1CC[C@H](n2nc(C#Cc3cc(OC)cc(OC)c3)c3c(N)ncnc32)C1` is recorded as 4.5% (human patients; oral, dose not given, QD regimen, adverse drug reaction, with: sevelamer hydrochloride).
Under “patients with adverse event”, `CN1CC[C@@H](c2c(O)cc(O)c3c(=O)cc(-c4ccc(C(F)(F)F)cc4Cl)oc23)[C@@H]1CO` is recorded as 25% (measured: Fatigue; B-cell malignancies or AML; oral, 100 mg, continuous dosing).
The micronucleated PCE of `C[C@H]1COCCN1c1nc(NCc2cccnc2C(F)(F)F)c2cccnc2n1` is reported as 0% and 0.2% and 0.05% (male CD-1 mouse, femur bone marrow; oral, 1000 mg/kg twice, 48 h).
With `CC(C)C(=O)OC[C@H]1O[C@@H](n2ccc(NO)nc2=O)[C@H](O)[C@@H]1O` the bench-top stability was 102 ± 2.21% (rat amniotic fluid dialysate; 250 ng/mL, 6 h, room temperature, high concentration, with: NHC 1000 ng/mL).
The recovery of `C/C(=N\C#N)N(C)Cc1ccc(Cl)nc1` is reported as 46% (soil; 0.12 nominal, 0 days, Folsomia candida soil test).
With `C[C@H]1C[C@@H](N2C(=N)N[C@](C)(c3cccc(NC(=O)c4cccc(C#N)c4)c3Cl)CC2=O)CCO1` the free Cmax was 5030 ng/mL (Han Wistar rat male; oral, 1000 mg/kg, 7 days).
Under “patients with decreased appetite”, `C=CC(=O)Nc1cc(Nc2nccc(Nc3cc(Cl)c(F)cc3C(C)(C)O)n2)c(OC)cc1N1CC[C@@H](N(C)C)C1` is recorded as 33.3% (human patients; oral, 100 mg, treatment-emergent adverse events).
Under “patients with back pain TEAE”, `C=CCNc1c(O)cc2c(O)c1C[C@@H](C)C[C@H](OC)[C@H](O)[C@@H](C)/C=C(\C)[C@H](OC(N)=O)[C@@H](OC)/C=C\C=C(/C)C(=O)N2` is recorded as 0% (unresectable or metastatic STS, GIST, other; intravenous, 500 mg/m^2).
For `CC(C)c1ccc(N=Nc2ccc3[nH]cc(CCN(C)C)c3c2)cc1`, “trans isomer at photostationary state” read 87% (light irradiation; solution; with: light 530 nm).
`COC[C@@H](CC(C)C)NC(=O)c1ccc(C)c(C)c1` — result for “micronucleated PCE per 1000 PCE”: 0.1 (Hsd:ICR (CD-1) mouse, male, bone marrow; oral, 2000 mg/kg, 24 h).
`CN(C(=O)n1cnc(-c2ccc[n+]([O-])c2)c1)C1CCCCC1` gave a concentration of 99.9 ± 38.4 ng/g (Wistar rat, medulla oblongata; oral, 10 mg/kg/day, 4 h, repeated 5 days).
`CCc1ccc(CC/C=C/c2ccc3c(c2)C(=O)CC3)cc1`: “CK serum activity” 350 U/L (Sprague-Dawley rat, female; oral, 450 mg/kg/day, 14 days).
With `C1=Cc2nc1cc1ccc([n-]1)c(C1CC1)c1nc(cc3ccc([n-]3)c2C2CC2)C=C1.CC(=O)[O-].[Mn+3]` the plasma concentration was 77 ng/mL (LC-MS/MS; Sprague-Dawley rat, plasma; oral gavage, dose not given, 30 min, individual rat Rat1).
For `O=S(=O)(Nc1ccccc1)c1ccc(NC(=S)Nc2ccccc2)cc1`, “mean corpuscular haemoglobin concentration” read 30.6 g/dL (mouse, female, blood; oral, 5 mg/kg daily, 14 days).
For `C[C@@H](NC(=O)N1C(=O)[C@H](Cc2ccnc(N)c2)[C@H]1C(=O)O)C1CCCCC1`, “related decreased WBC” read 0% (healthy Chinese adults; continuous intravenous infusion, 0.3 mg/kg/h, 5.0 days).
Under “grade ≥3 Lymphocytopenia incidence”, `CCN1[C@@H](C(=O)NC23CCC(C(=O)O)(CC2)CC3)[C@H](c2cccc(Cl)c2F)[C@]2(C(=O)Nc3cc(Cl)ccc32)C12CCCCC2` is recorded as 50% (patients with advanced solid tumours; oral, 200 mg).
Under “onset day of first chorioretinopathy DLT”, `O=C(c1ccc(F)c(F)c1Nc1ccc(I)cc1F)N1CC(O)([C@@H]2CCCCN2)C1` is recorded as 8 days (human; oral, 1.33 mg/kg).
Under “treatment-emergent adverse events”, `CCS(=O)(=O)Nc1ccc(Oc2ccc(F)cc2F)c(-c2cn(C)c(=O)c3[nH]ccc23)c1` is recorded as 0% (serious lung infection; human, relapsed/refractory AML; oral, dose not given).
`COc1cc2c(Oc3ccc4[nH]c(C)cc4c3F)ccnc2cc1OCC1(N)CC1`: “grade 1 or 2 intestinal obstruction” 0% (paediatric recurrent refractory sarcoma; 12 mg).
For `N=C(N)NCCC[C@@H](NC(=O)[C@@H](N)Cc1ccccc1)C(=O)N[C@@H](Cc1ccccc1)C(=O)N[C@@H](CCCCN)C(N)=O`, “median fraction excreted in urine” read 1.83% (LC-MS; human; 5 mg, 23.83 h).
Under “QTcI change from baseline”, `NCCCC[C@@H]1NC(=O)[C@@H](Cc2c[nH]c3ccccc23)NC(=O)[C@H](c2ccccc2)NC(=O)[C@@H]2C[C@@H](OC(=O)NCCN)CN2C(=O)[C@H](Cc2ccccc2)NC(=O)[C@H](Cc2ccc(OCc3ccccc3)cc2)NC1=O` is recorded as 5.5 ms (healthy volunteers; subcutaneous, 1950 µg twice daily, day 5, 1.00 h).
`O=C(O)CNCP(=O)(O)O` — result for “final permeate concentration”: 20.2 nM (ultrafiltration; cow milk whey; 20 nM nominal in whole milk).
`O=C1Nc2cc3[nH]nc(-c4ccncc4)c3cc2CN1Cc1ccccc1`: “patients with headache” 20% (CTCAE v4.03; advanced solid tumour patients; intravenous, 7.2 mg/kg, schedules 1/2).
The concentration of `CN1CCN(S(=O)(=O)c2cc([N+](=O)[O-])ccc2N(CCOS(C)(=O)=O)CCOS(C)(=O)=O)CC1` is reported as 74 nM (NSG mice female, brain; intraperitoneal, 10 mg/kg, 0.5 h).
The tmax of `C[C@]1(CO)Cc2ncn(-c3ccc(C#N)c(Cl)c3)c2C(=O)O1` is reported as 1 h (human, plasma; 40 mg, first dose fasted).
With `COc1ncccc1-c1cnn2ccc(N3CCN(C(=O)OC(C)C)CC3)nc12` the drug concentration was 3300 nM (rat, thermal hyperalgesia model, brain; oral, 10 mg/kg, 180 min).
For `[O-][S+]1CCc2nc(N3CCC(c4ncc(Cl)cn4)CC3)nc(NC3(CO)CCC3)c21` (stereo not shown), “subjects with adverse events” read 80% (phase I trial, measured: gastrointestinal disorders; idiopathic pulmonary fibrosis patients; 18 mg twice daily).
`CC(=O)c1c(C)c2cnc(Nc3ccc(C4CCN(CCS(C)(=O)=O)CC4)cn3)nc2n(C2CCCC2)c1=O` has an MRT of 13.8 h (human, plasma; oral, 75 mg, day 1 single dose).
`CCN1CCN(Cc2ccc(Nc3ncc(F)c(-c4cc(F)c5nc6n(c5c4)[C@H](C)CCC6)n3)nc2)CC1`: “Hypercalcemia incidence, grade ≥3” 0% (advanced solid tumour patients; dose not given, Phase Ia monotherapy).
For `Cn1cncc1-c1c(F)cncc1NC(=O)c1c(N)nn2cc(F)cnc12`, the anaemia DLT was 75% (human patients; oral, 150 mg twice daily, 4 days per 3 days, 21 days).
`Cc1c(COC(=O)[C@@H]2[C@H](/C=C(\Cl)C(F)(F)F)C2(C)C)cccc1-c1ccccc1` (racemic) — result for “enzyme contribution to clearance”: 51.7% (measured: CYP2C19; human, age 1 year, recombinant human CYP2C19; 0.1 µM).
